Assay results gathered from unrelated publications.
Protocols differ between the studies behind these lines. Values joined by “and” are separate records of one study, mostly repeats; a detail may differ. Numbers after ± are the reported error. Converted amounts (≈) assume the structure as drawn.

SMILES	assay	system	setting	how to read	quantity	result
O=C(Nc1nc2cccc(-c3ccc(CN4CCS(=O)(=O)CC4)cc3)n2n1)C1CC1	item: gingival bleeding	human rheumatoid arthritis patients	oral, 30 mg once daily, 4 weeks, regardless of relatedness	–	treatment-emergent adverse events	0%
C[C@H]1O[C@@H](O[C@H]2[C@@H](O)C[C@H](O[C@H]3[C@@H](O)C[C@H](O[C@H]4CC[C@@]5(C)[C@H](CC[C@@H]6[C@@H]5C[C@@H](O)[C@]5(C)[C@@H](C7=CC(=O)OC7)CC[C@]65O)C4)O[C@@H]3C)O[C@@H]2C)C[C@H](O)[C@@H]1O	item: Diarrhea	human	oral, 0.25 mg	–	participants with TEAE	0%
c1ccc(CCNc2nc(-c3ccccn3)nc3ccccc23)nc1	–	Japanese Pharmacopoeia disintegration test solution 2	pH 6.8	–	kinetic solubility	80 µg/mL (≈ 244 µM)
N#Cc1ccc2c(c1)[C@H]1CCCN(C(=O)c3ccc4[nH]cnc4c3)[C@H]1C2	–	human	20 mg, day 15	baseline: baseline	ACTH level change	2.2 pmol/L
Oc1ccc(/C=C/c2cc(O)cc(O)c2)cc1	–	rat, azoxymethane-injected, blood at sacrifice	100 mg/kg	–	lactate dehydrogenase	410 IU/L and 469 IU/L and 562 IU/L
O=C(N[C@H](Cc1c[nH]c2ccccc12)C(=O)Nc1ccncc1)c1ccc(N2CCN(c3ccc(F)c(F)c3)CC2)cc1F	–	Swiss Webster mouse, female, intestine	oral, 50 mg/kg, 8 h, 20% HPβCD vehicle	–	concentration	3.74 µM
Cc1cccc(CNC(=O)c2cn(CCNC(=O)c3ccccc3S)c3cc4c(cc3c2=O)OC(F)(F)O4)n1	–	Sprague-Dawley rat, male, plasma	intravenous, 5 mg/kg of parent drug	–	Cmax	269 ± 48.7 ng/mL
CCN1/C(=C/C(C)=O)Sc2ccc(F)cc21	–	cynomolgus monkey	oral, 10 mg/kg, 2 h post-dose	–	QRS duration	36 ± 2 ms
CCc1cc(C(=O)NC)c2nccc(N3CCc4c(cc(Cn5ccnc5)cc4-c4cn(C)nc4C(F)(F)F)C3=O)c2c1	–	Sprague-Dawley rats, male, bile duct-cannulated, plasma	oral, 50 mg/kg	–	AUC(0-inf)	94800 ng·h/mL
COc1cc(C)c(/C=C/C(C)=C/C=C/C(C)=C/C(=O)O)c(C)c1C	shake-flask	Cremophor ELP	37 °C, water up to 0.5% w/w	–	thermodynamic solubility	1.58 ± 0.08 mg/g
O=C(Nc1ccc(OC(F)(F)Cl)cc1)c1cnc(N2CC[C@@H](O)C2)c(-c2ccn[nH]2)c1	per treatment cycle, item: absolute neutrophil decrease	human patients	oral, dose not given, 28 day cycle, dose-finding study	–	grade ≥3 event rate	3.8%
Cc1c(C(=O)O)ccc2c3n(nc12)[C@@H]1[C@H](C3)N(CC2CC2)[C@@]2(C(=O)Nc3cc(Cl)ccc32)[C@H]1c1cccc(Cl)c1F	–	human patients phase Ia	oral, dose not given, all grades, all patients	–	abdominal pain incidence	11.1%
CC(C)[C@@H](CN1CC[C@@](C)(c2cccc(O)c2)[C@@H](C)C1)NC(=O)[C@H]1Cc2ccc(O)cc2CN1	–	rat, brain	intraperitoneal, 3 mg/kg	–	AUClast	6980 ng·h/g
CC1(CNC(=O)[C@H](CN)NC(=O)c2ccc(C#Cc3ccccc3)cc2)NC(=O)NC1=O (stereo partly drawn)	–	aqueous buffer	pH 7.4	–	thermodynamic solubility	859 µM (≈ 372 µg/mL)
CCCC[C@H]1CC[C@H](c2ccc(C#N)cc2)CC1	–	Sprague-Dawley rat, female, placenta	5000 ng/mL in perfusate, 50 (unit not given), high dose, mixture of 21 LCMs	–	median placental accumulation	311 ng/g
C=CC(=O)NC1CCN(c2ncc3ncnc(Nc4ccc(Oc5ccc6c(c5)ncn6C)c(C)c4)c3n2)CC1	item: body temperature increased	human male	oral, dose not given, CTCAE on-treatment AEs	–	adverse events incidence	0%
Cc1nc2cccc(OCC(C)(C)C(=O)NC(C)C)c2c(N)c1C(=O)O	–	Sprague-Dawley rat, male, plasma	oral, 30 mg/kg, day 7 over day 1, 7-day repeated dosing	baseline: day 7 over day 1	AUClast ratio	0.95 ± 0.15
NC(=O)N1c2ccccc2CC(O)c2ccccc21 (stereo not drawn)	population PK, bootstrap median	human patients, plasma	–	–	clearance	3.04 L/h
CN(CCCN1CCN(C(=O)CN2CCN(CC(=O)[O-])CCN(CC(=O)[O-])CCN(CC(=O)[O-])CC2)CC1)c1ccc2nccc(C(=O)NCC(=O)N3CC(F)(F)C[C@H]3C#N)c2c1.[68Ga+3]	–	mice, HT-1080.hFAP and HT-1080 wild-type xenografts, adrenal	iv, 500 pmol, 1 h post injection	–	uptake	0.5 ± 0.2 %IA/g
CNC(=O)c1ccc(-c2nn3c(Cc4ccc5ncccc5c4)cnc3[nH]c2=O)cc1F	–	human plasma	-70 °C	–	storage stability	≥ 674 days
CCCCOC(=O)N1CCN(C(=O)[C@H](CP(=O)(O)O)NC(=O)c2cc(N3CC[C@H](OC)C3)nc(-c3ccccc3)n2)CC1	–	human	subcutaneous, 16 mg, 1 h post-dose	baseline: baseline	change in QT interval	11.9 ± 16.1 ms

For quick reference, copied from above:
SMILES	assay	system	setting	how to read	quantity	result
C=CC(=O)NC1CCN(c2ncc3ncnc(Nc4ccc(Oc5ccc6c(c5)ncn6C)c(C)c4)c3n2)CC1	item: body temperature increased	human male	oral, dose not given, CTCAE on-treatment AEs	–	adverse events incidence	0%
C[C@H]1O[C@@H](O[C@H]2[C@@H](O)C[C@H](O[C@H]3[C@@H](O)C[C@H](O[C@H]4CC[C@@]5(C)[C@H](CC[C@@H]6[C@@H]5C[C@@H](O)[C@]5(C)[C@@H](C7=CC(=O)OC7)CC[C@]65O)C4)O[C@@H]3C)O[C@@H]2C)C[C@H](O)[C@@H]1O	item: Diarrhea	human	oral, 0.25 mg	–	participants with TEAE	0%
O=C(N[C@H](Cc1c[nH]c2ccccc12)C(=O)Nc1ccncc1)c1ccc(N2CCN(c3ccc(F)c(F)c3)CC2)cc1F	–	Swiss Webster mouse, female, intestine	oral, 50 mg/kg, 8 h, 20% HPβCD vehicle	–	concentration	3.74 µM
